Measurements of several laboratories.
Each line is one published result; not all experiments were run side by side.

Molecule	assay	test system	conditions	quantity	value
CC(C)(O)CNc1nc(Nc2ccnc(C(F)(F)F)c2)nc(-c2cccc(C(F)(F)F)n2)n1	–	human patients	oral, single and multiple doses, added: induction and consolidation chemotherapy	median Tmax	~4 h
CC[C@@H]1C(=O)N(C)c2cnc(Nc3ccc(C(=O)N[C@H]4CC[C@H](N5CCN(CC6CC6)CC5)CC4)cc3OC)nc2N1C(C)C	–	human, plasma	intravenous infusion, 150 mg over 2 h, first infusion	median Tmax	1.03 h
N#Cc1ccnc(N2C(=O)CC[C@H]2C(=O)N(c2cncc(F)c2)[C@H](C(=O)NC2CC(F)(F)C2)c2ccccc2Cl)c1	–	human patients	oral, 500 mg once daily, cycle 1 day 1, added: consolidation chemotherapy	median Tmax	3.93 h
C[C@H](N)C(=O)N1C[C@H](CCCB(O)O)[C@](N)(C(=O)O)C1	–	human patients, plasma	oral, 75 mg single dose, cycle 1 day 1	median tmax	2 h
CO[C@H]1C[C@@H]2CC[C@@H](C)[C@@](O)(O2)C(=O)C(=O)N2CCCC[C@H]2C(=O)O[C@H]([C@H](C)C[C@@H]2CC[C@@H](OC(=O)C(C)(CO)CO)[C@H](OC)C2)CC(=O)[C@H](C)/C=C(\C)[C@@H](O)[C@@H](OC)C(=O)[C@H](C)C[C@H](C)/C=C/C=C/C=C/1C	–	human, whole blood	intravenous, 35 mg/m2 weekly, cycle 5, added: valproic acid	median half-life	12.9 h
O=C(O)CCc1cccc(O)c1O	–	human, fasted baseline, cerebrospinal fluid	–	median concentration	15.8 nM
Teicoplanin	HPLC-UV	human patients, serum	dose not given	median trough total concentration	24.9 µg/mL
COc1cc(CCC(=O)O)ccc1O[C@@H]1O[C@H](C(=O)O)[C@@H](O)[C@H](O)[C@H]1O	–	human, fasted baseline, cerebrospinal fluid	–	median concentration	1.7 nM
Cn1c(-c2ccc(C(N)=O)cc2F)nnc1C(C)(C)Oc1c(F)cc(Cl)cc1F	–	young non-Japanese humans, plasma	oral, 0.7 mg, day 1, single dose	median Cmax	0.0126 ng/mL
O=S(=O)(O)Oc1c(O)cccc1O	–	human, fasted baseline, cerebrospinal fluid	–	median concentration	2.1 nM
C=CC(=O)Nc1cc(Nc2nccc(-c3cn(C)c4ccccc34)n2)c(OC)cc1N(C)CCN(C)C	UHPLC-MS/MS	human, NSCLC patients, finger-prick dried blood spot	oral, 80 mg daily, steady state, at least 14 d treatment	median trough concentration	203 ng/mL
COc1ccc(C(=O)O)cc1OS(=O)(=O)O	–	human, fasted baseline, cerebrospinal fluid	–	median concentration	18.8 nM
CCN(CC)CCNC(=O)c1c(C)[nH]c(/C=C2\C(=O)Nc3ccc(F)cc32)c1C	–	human, plasma	oral, 15 mg/m2, day 28	median trough plasma concentration	22.5 ng/mL

Repeated from above:
Molecule	assay	test system	conditions	quantity	value
C[C@H](N)C(=O)N1C[C@H](CCCB(O)O)[C@](N)(C(=O)O)C1	–	human patients, plasma	oral, 75 mg single dose, cycle 1 day 1	median tmax	2 h
Cn1c(-c2ccc(C(N)=O)cc2F)nnc1C(C)(C)Oc1c(F)cc(Cl)cc1F	–	young non-Japanese humans, plasma	oral, 0.7 mg, day 1, single dose	median Cmax	0.0126 ng/mL
